Assay results pooled from the literature.
± gives the spread as reported. Converted amounts (≈) assume the structure as drawn.
Oprk1: Kappa-type opioid receptor (Oprk1, Mus musculus, UniProt P33534)

Amino acid sequences for entries named in this document (tags omitted). Residues count along the entry.
UniProt P33534, whole entry: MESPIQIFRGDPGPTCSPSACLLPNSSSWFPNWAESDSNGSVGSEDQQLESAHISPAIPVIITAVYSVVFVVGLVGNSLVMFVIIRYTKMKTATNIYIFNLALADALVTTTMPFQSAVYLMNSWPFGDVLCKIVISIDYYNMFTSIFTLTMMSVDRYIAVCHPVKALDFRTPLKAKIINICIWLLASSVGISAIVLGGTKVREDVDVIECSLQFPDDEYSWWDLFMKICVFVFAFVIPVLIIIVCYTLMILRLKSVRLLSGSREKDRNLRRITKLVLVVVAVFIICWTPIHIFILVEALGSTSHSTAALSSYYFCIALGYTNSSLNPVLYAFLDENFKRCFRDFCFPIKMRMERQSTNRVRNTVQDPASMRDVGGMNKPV
UniProt P9WIQ1, whole entry: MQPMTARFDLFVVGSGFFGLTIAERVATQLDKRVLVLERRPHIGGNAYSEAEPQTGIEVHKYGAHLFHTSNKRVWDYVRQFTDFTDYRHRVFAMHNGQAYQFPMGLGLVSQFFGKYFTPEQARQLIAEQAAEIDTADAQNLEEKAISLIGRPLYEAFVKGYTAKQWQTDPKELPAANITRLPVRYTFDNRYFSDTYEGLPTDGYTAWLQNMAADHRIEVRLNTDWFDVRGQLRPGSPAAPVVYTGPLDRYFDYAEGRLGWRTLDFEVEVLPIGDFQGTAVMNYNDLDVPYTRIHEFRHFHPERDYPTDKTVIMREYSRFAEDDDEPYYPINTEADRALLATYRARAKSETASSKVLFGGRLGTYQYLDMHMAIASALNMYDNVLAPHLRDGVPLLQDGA
UniProt P42225, 2-749 limits assumed: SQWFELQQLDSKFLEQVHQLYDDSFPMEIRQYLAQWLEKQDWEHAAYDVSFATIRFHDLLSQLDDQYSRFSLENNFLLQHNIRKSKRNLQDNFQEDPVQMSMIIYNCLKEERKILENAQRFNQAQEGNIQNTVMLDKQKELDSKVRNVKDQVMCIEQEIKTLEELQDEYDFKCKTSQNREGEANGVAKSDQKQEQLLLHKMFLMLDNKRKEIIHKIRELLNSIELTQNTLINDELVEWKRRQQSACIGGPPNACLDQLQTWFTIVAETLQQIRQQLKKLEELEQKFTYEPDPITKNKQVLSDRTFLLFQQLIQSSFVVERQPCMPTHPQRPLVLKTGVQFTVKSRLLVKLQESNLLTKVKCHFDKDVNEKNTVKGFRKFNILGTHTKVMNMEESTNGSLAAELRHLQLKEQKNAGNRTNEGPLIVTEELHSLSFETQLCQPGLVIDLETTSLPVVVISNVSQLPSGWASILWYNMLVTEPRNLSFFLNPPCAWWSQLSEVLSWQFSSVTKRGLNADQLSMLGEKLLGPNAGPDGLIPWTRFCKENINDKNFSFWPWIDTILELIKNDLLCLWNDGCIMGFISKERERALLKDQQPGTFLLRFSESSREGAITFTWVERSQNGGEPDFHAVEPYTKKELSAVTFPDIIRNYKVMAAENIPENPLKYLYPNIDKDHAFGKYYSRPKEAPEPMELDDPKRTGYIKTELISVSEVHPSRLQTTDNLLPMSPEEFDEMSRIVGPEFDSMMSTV
UniProt Q62645, whole entry, looked up: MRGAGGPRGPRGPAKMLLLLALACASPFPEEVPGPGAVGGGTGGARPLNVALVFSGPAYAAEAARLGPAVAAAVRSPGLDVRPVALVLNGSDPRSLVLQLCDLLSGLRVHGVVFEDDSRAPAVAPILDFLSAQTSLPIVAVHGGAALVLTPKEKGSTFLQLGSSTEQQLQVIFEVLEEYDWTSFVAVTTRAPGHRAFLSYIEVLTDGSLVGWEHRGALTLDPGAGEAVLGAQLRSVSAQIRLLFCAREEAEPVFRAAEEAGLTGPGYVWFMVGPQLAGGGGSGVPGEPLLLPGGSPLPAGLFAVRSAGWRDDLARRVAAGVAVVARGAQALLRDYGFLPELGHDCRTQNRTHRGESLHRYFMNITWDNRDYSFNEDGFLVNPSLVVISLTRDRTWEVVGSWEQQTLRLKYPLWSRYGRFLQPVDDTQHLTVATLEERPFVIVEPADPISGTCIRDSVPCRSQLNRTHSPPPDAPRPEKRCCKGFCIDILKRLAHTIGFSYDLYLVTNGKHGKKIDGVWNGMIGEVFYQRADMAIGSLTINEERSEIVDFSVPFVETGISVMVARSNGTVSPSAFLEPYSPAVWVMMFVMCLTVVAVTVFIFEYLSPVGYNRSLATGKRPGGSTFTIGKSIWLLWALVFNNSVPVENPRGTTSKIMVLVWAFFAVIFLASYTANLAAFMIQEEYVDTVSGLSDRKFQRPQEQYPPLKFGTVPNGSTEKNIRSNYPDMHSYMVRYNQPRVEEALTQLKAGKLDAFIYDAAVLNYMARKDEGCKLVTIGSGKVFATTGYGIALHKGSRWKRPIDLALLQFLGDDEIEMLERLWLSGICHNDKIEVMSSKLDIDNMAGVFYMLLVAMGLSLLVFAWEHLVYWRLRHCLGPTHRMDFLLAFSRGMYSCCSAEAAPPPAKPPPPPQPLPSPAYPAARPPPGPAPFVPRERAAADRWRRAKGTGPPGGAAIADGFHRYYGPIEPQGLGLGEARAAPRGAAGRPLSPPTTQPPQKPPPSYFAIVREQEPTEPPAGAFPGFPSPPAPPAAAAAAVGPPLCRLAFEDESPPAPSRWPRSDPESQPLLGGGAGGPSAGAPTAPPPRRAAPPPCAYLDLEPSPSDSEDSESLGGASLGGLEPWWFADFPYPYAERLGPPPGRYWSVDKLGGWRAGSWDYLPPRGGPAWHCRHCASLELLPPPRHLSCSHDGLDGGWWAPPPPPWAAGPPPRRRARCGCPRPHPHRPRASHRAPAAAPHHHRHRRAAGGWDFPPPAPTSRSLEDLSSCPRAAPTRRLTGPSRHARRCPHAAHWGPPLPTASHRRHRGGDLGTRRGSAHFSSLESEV
UniProt P23975, whole entry: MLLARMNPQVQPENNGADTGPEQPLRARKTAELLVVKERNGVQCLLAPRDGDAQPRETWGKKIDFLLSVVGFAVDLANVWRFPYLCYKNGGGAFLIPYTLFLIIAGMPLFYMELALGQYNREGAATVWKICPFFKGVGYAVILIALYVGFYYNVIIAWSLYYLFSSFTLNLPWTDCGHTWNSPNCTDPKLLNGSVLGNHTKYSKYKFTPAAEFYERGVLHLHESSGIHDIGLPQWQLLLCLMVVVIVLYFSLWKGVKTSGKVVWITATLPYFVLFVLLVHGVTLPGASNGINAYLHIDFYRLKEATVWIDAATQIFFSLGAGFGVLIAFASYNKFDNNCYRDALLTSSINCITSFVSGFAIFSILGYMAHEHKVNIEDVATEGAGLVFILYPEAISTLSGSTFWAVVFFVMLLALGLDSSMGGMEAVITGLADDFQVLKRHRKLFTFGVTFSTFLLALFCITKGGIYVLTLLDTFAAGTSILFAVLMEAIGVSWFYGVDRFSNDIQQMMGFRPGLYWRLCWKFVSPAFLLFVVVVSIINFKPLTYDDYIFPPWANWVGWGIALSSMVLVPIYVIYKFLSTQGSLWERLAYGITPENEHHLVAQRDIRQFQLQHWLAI
UniProt Q08J23, whole entry: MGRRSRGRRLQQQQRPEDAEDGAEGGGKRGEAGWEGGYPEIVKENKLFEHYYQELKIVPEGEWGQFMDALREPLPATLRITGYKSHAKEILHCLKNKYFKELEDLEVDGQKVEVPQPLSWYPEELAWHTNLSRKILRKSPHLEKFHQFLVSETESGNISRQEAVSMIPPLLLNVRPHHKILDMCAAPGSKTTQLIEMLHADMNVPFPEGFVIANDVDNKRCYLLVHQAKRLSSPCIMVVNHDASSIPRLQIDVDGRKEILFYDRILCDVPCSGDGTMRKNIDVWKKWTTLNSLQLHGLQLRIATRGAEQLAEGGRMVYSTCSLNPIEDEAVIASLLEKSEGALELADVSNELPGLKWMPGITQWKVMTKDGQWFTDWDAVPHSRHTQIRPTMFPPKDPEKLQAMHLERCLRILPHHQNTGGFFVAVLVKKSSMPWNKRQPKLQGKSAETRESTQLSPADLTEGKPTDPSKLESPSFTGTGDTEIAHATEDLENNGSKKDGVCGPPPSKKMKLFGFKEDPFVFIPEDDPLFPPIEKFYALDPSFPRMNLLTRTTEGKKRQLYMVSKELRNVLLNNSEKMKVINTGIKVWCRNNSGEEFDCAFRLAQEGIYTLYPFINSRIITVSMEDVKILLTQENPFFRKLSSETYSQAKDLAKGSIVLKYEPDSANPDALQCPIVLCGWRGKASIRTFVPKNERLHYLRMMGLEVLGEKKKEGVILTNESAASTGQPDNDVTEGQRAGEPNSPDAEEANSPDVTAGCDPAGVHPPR
UniProt P41145, whole entry: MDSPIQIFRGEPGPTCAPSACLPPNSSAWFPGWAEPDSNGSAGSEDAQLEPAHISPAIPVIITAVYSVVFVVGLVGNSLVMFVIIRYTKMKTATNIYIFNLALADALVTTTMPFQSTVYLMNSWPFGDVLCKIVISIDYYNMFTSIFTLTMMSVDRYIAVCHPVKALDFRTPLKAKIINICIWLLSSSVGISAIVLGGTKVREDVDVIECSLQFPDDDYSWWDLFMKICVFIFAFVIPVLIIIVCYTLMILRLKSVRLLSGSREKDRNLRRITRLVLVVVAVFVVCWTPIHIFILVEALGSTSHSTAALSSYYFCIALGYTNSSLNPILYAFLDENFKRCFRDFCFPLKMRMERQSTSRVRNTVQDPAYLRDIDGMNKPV
UniProt P48730, whole entry: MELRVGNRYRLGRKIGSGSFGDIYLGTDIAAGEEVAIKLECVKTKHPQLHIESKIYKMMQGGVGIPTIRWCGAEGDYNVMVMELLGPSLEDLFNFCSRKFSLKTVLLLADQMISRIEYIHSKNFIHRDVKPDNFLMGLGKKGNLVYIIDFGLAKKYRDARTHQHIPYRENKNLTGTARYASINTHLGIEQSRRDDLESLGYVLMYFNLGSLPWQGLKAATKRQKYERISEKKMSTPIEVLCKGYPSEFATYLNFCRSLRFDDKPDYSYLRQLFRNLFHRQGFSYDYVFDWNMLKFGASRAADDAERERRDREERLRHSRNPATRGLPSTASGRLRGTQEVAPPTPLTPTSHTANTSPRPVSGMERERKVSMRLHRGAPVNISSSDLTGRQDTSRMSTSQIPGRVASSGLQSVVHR
UniProt P06276, whole entry, looked up: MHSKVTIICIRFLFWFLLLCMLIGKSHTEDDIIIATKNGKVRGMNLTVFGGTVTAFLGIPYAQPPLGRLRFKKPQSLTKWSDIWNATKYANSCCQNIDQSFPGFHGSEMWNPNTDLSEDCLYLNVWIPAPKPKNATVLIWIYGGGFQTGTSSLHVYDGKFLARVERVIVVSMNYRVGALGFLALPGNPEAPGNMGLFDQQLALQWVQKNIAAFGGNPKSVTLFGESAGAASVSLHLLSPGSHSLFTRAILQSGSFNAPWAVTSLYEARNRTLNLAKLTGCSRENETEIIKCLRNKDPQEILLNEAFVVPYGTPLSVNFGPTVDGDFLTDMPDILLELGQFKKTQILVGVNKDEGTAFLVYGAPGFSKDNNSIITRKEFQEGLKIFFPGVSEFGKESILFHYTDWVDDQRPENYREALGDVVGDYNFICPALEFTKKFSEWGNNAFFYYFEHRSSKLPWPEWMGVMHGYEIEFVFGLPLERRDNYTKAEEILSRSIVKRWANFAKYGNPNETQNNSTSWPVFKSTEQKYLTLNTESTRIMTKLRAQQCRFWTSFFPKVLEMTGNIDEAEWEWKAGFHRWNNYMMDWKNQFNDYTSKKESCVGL
UniProt P28072, whole entry, looked up: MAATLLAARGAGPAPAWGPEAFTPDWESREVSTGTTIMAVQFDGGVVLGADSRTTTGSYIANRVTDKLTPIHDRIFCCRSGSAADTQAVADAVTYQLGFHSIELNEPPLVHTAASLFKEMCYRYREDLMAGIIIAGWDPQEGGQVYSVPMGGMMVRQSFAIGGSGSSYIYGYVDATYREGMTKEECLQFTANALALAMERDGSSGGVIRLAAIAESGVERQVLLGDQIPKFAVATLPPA

| Molecule | tested on | test | system | setting | how to read | endpoint | result |
| --- | --- | --- | --- | --- | --- | --- | --- |
| methoxymethyl salvinorin B | Oprk1 | agonist | – | – | baseline: G protein over internalization, vs dynorphin A | log bias factor | 0.34 ± 0.25 |
| Cc1ccc(C(=O)Nc2ccc(CN3CCN(C)CC3)c(C(F)(F)F)c2)cc1C#Cc1cnc2cccnn12 | Proto-oncogene tyrosine-protein kinase receptor Ret, KIF5B-RET fusion (RET, Homo sapiens, UniProt P07949, G810R) | inhibitor | – | 0.02 µM, cell-based | – | inhibition | < 25% |
| CS(=O)(=O)NC(=O)C(Cc1ccc(I)cc1)Nc1nc(-c2ccc(Cl)c(Cl)c2)cs1 (stereo not drawn) | glf (Mycobacterium tuberculosis, UniProt P9WIQ1) | enzyme activity, inhibitor | – | 50 µM | – | inhibition | > 90% |
| Cc1ccc(S(=O)(=O)N(C)CC(=O)N(Cc2ccc(C3CCCCC3)cc2)c2ccc(C(=O)O)c(O)c2)cc1 | Signal transducer and activator of transcription 1, homodimer (Mus musculus, UniProt P42225) | EMSA, measured: hSIE probe | NIH3T3/hEGFR nuclear extracts | 200 µM, added: EGF | – | DNA-binding activity | inhibited |
| COc1ccc(OC[C@H]2c3cccn3CC(=O)N2Cc2cccc(F)c2)cc1 | Glutamate receptor ionotropic, NMDA 2D, with GluN1 (Rattus norvegicus, UniProt Q62645) | ion current, positive allosteric modulator, two-electrode voltage clamp | Xenopus oocytes expressing GluN1/GluN2D | – | – | maximum potentiation | 370% |
| CCCN1CCN(c2ccc3c(c2)C2CC3CCN2C(=O)OCc2ccccc2)CC1 (stereo not drawn) | SLC6A2 (Homo sapiens, UniProt P23975) | binding, radioligand binding | – | – | – | Ki | 3.85 µM |
| CSc1nc(Cl)cc(Sc2nnc(-c3cc(C(F)(F)F)cc(C(F)(F)F)c3)[nH]2)n1 | Acinetobacter baumannii | – | ATCC 9955 | no additive | – | MIC | > 590 µg/mL |
| CC#C/C(=N\OC[C@H]1COCCN1)c1ccc2ncnc(Nc3ccc(OCc4cccc(F)c4)c(Cl)c3)c2c1 | FER (Homo sapiens, UniProt P16591) | kinase activity | – | 10 µM | – | inhibition | 17.5% |
| CN(C(=O)Cc1cccc2occc12)[C@H]1CC[C@@]2(CCCO2)C[C@@H]1N1CCCC1 | Oprk1 | receptor internalization, agonist | – | concentration not given | baseline: dynorphin A | log intrinsic relative activity | 0.37 ± 0.26 |
| C=CC(=O)N1C[C@H](c2ccc(Br)cc2)[C@@H]1C(=O)Nc1cccc2cccnc12 | NSUN2 (Homo sapiens, UniProt Q08J23) | methyltransferase activity | – | highest concentrations tested | – | maximal inhibition | ~80% |
| ethoxymethyl salvinorin B | OPRK1 (Homo sapiens, UniProt P41145) | agonist | – | – | baseline: U-50488 10 µM | Emax | 108 ± 3.4% |
| COC(=O)COc1ccc2nc3ccc(=O)cc-3oc2c1 | Mycobacterium tuberculosis | – | mc2 6206 bedaquiline-resistant MmpL5 regulator mutant | 7 days | – | MIC90 | 46 µM (≈ 13.1 µg/mL) |
| Cc1cc(=O)oc2cc(NC(=O)[C@H](CCCNC(=N)N)NC(=O)[C@H](CCCNC(=N)N)NC(=O)CNC(=O)OC(C)(C)C)ccc12 | Genome polyprotein, NS2B-NS3 protease (Zika virus, UniProt Q32ZE1) | substrate | – | – | – | Km | 312 ± 30 µM |
| O=c1ccc2nc3ccc(OCC4CCCOC4)cc3oc-2c1 (stereo not drawn) | Mycobacterium tuberculosis | – | mc2 6206 PA-824-resistant ddn mutant | 7 days | – | MIC90 | 69 µM (≈ 21.5 µg/mL) |
| Cc1ccc2nc(-c3ccc4nc(-c5ccc(NC(=O)c6ccncc6)cc5)sc4c3)sc2c1S(=O)(=O)O | MBHA DNA substrate | SYBR Green I displacement | – | 100 µM | – | DNA bound | 19 ± 7% |
| CCN1CCN(Cc2ccc(NC(=O)c3ccc(C)c(/C=C/c4cnc5[nH]ccc5c4OC)c3)cc2C(F)(F)F)CC1 | CSNK1D (Homo sapiens, UniProt P48730) | inhibitor, cell-based kinome screen | human cells | 5 µM | baseline: vehicle | log2 fold change | 0.659 |
| CCN(CC)C(=O)Oc1ccc(C(=O)Nc2cccc3cc[nH]c23)cc1 | Glutamate receptor ionotropic, NMDA 2A, with GluN1 (Grin2a, Rattus norvegicus, UniProt Q00959) | ion current, whole-cell patch clamp | HEK cells | concentration not given | – | activity | inactive |
| Cc1ccc(S(=O)(=O)Nc2ccccc2N2CCCCC2)s1 | Cholinesterase (BCHE, Homo sapiens, UniProt P06276) | enzyme activity, inhibitor | – | Triton-containing buffer | – | IC50 | inactive |
| CN(C(=O)Cc1ccc(Cl)c(Cl)c1)[C@H](CN1CCCC1)c1ccccc1 | Oprk1 | receptor internalization, agonist, on-cell western | – | mouse receptor | baseline: control | Emax | 47.2 ± 1.5% |
| O=C(Nc1ccccc1)c1cc([N+](=O)[O-])ccc1Cl | Salmonella typhimurium | Ames plate incorporation | TA98 | 15 µg/plate, without metabolic activation | – | revertants | 29 ± 2 revertants/plate |
| Cc1ccc(-c2nsc(=O)o2)s1 | PSMB6 (Homo sapiens, UniProt P28072) | inactivation | human PA28-activated proteasome | – | – | kobs/[I] | 2.35 M⁻¹ s⁻¹ |
